Measured values of several laboratories.
Several values in a cell are separate wells, animals, samples, runs or records. ± marks the error that the study gave.

With `Cc1cccc(-c2[nH]c(CNc3ccccc3F)nc2-c2ccc3ncnn3c2)n1` the IFN-gamma production was 1.07% and 1.1% and 1.31% and 1.04% and 1.33% and 1.25% (CD8+ T cells from myeloma patient; ELISA; human; 0.5 µM, 192 h).
`COc1cnc2cccc(N3CCc4c(cc(Cn5ccnc5C)cc4-c4cn(C)nc4C(F)(F)F)C3=O)c2c1` gave an EC50 of 2170 nM (SNU-16; cell growth, inhibitor; 120 h).
`CCCCN1CCN(c2ccc3[nH]c(-c4ccc5[nH]c(-c6ccc(OCC)c(OCC)c6)nc5c4)nc3c2)CC1` has a growth percent of -67.8% (SF-295; SRB; 10 µM, 48 h).
Under “log2 fold change”, `Cn1cc(-c2ccc(-c3cncc(Cl)c3N3CCC4(CCNC4=O)CC3)cc2)cn1` is recorded as -2.7 (COLO 205; gene expression, microarray, refers to: MKI67 mRNA; concentration not given, 2 h; baseline: untreated cells).
For `CC(C)NCC(O)c1ccc(O)c(O)c1` (stereo not shown), the sarcomere length was 1.8 µm (mouse ventricular cardiomyocytes; dose not given, 0.279 s).
Under “apoptotic cells Late”, `COc1nc(NCc2cn(-c3ccc(C(=O)Nc4ccccc4)cc3)nn2)nc(OC)n1` is recorded as 11.7% (HCT-116; annexin V-FITC/PI; IC50, 24 h).
For `CCn1cc(-c2cc(Cn3ccoc3=N)cc3c2CCN([C@@H](C)c2cc(OC)ccn2)C3=O)c(C(F)(F)F)n1`, the EC50 was 176 nM (HEC59; cell growth; 120 h).
`NC(=O)NOCCCCCCCCCCCCCCCCCCCC[P+](c1ccccc1)(c1ccccc1)c1ccccc1.O=C([O-])C(F)(F)F` has a cell confluence of 70.1 ± 1.95% (HCT-116; cell growth, live-cell imaging; 0.2 µM, control at 90% confluence).
With `CCn1cc(-c2cc(Cn3ccnc3)cc3c2CCN([C@H](c2cc(OC)ccn2)C2CC2)C3=O)c(C(F)(F)F)n1` the EC50 was 4610 nM (SU-DHL-4; cell growth, inhibitor; 120 h).
For `Cc1cnc(NC2CCOCC2)nc1-n1cnc(C(=O)NC(CN)c2cc(F)cc(Cl)c2)c1` (stereo not shown), “G1 phase cells” read 50.1% (Rec1; flow cytometry; 1 µM, 24 h).

A few entries again:
`COc1cnc2cccc(N3CCc4c(cc(Cn5ccnc5C)cc4-c4cn(C)nc4C(F)(F)F)C3=O)c2c1` gave an EC50 of 2170 nM (SNU-16; cell growth, inhibitor; 120 h).
For `Cc1cnc(NC2CCOCC2)nc1-n1cnc(C(=O)NC(CN)c2cc(F)cc(Cl)c2)c1` (stereo not shown), “G1 phase cells” read 50.1% (Rec1; flow cytometry; 1 µM, 24 h).
